Published values collected from several papers.
Parts stem from different laboratories: compare values within a part only. Several values in a cell are separate wells, animals, samples, runs or records.
Chain of UniProt Q86YV6 (whole entry, looked up): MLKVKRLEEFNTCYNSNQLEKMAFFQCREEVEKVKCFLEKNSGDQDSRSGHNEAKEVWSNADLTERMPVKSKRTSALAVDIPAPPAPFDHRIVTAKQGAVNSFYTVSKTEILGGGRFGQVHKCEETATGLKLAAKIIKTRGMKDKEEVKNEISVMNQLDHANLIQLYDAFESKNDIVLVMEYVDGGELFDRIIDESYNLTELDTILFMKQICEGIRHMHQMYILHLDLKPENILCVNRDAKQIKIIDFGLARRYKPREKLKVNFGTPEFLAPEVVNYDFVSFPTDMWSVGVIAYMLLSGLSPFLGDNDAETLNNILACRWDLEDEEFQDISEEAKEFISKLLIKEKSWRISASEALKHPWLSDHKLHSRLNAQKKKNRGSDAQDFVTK
Chain of UniProt P00519 (whole entry, unmodified, looked up): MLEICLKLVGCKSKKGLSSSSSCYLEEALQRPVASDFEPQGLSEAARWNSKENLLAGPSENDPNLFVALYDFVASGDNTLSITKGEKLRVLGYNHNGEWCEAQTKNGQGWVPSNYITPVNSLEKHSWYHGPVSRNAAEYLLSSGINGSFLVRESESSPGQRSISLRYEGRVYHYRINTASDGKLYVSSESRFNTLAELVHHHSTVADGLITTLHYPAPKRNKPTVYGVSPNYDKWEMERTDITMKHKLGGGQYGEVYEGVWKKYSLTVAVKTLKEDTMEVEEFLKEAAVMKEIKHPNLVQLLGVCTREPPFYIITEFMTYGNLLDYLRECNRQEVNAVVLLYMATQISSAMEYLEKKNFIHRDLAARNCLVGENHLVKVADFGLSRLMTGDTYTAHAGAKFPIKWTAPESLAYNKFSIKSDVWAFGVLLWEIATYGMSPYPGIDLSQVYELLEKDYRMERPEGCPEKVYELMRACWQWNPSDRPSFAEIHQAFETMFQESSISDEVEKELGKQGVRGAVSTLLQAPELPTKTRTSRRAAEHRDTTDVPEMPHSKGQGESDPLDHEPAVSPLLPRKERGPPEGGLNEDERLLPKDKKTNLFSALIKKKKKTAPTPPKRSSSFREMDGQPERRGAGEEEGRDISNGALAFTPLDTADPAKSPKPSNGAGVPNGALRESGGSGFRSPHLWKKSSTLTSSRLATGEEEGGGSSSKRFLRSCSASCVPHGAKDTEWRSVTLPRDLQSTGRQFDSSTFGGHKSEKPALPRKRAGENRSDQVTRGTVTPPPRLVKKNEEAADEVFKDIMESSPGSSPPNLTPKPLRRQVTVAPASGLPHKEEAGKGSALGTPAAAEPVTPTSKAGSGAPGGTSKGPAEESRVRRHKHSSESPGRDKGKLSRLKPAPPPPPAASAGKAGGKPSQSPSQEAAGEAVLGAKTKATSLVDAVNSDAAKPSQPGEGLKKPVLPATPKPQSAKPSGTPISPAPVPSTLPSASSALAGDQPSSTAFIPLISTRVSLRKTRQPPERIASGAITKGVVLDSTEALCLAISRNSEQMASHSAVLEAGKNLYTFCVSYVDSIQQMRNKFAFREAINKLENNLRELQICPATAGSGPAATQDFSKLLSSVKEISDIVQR
Chain of UniProt P31751 (whole entry, looked up): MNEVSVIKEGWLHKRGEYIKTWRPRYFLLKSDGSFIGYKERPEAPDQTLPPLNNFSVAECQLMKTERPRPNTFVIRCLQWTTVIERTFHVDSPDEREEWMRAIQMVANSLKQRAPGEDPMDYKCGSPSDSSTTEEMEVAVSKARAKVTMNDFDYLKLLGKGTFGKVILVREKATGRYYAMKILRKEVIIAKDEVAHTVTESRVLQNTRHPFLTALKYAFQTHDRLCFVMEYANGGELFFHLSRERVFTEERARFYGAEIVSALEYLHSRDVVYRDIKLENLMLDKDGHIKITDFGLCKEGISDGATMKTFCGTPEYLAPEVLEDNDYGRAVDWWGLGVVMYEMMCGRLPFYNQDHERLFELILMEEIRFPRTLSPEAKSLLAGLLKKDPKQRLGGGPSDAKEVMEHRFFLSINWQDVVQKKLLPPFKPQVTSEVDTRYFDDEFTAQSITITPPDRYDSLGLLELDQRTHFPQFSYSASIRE
Chain of UniProt Q9HBY8 (whole entry, looked up): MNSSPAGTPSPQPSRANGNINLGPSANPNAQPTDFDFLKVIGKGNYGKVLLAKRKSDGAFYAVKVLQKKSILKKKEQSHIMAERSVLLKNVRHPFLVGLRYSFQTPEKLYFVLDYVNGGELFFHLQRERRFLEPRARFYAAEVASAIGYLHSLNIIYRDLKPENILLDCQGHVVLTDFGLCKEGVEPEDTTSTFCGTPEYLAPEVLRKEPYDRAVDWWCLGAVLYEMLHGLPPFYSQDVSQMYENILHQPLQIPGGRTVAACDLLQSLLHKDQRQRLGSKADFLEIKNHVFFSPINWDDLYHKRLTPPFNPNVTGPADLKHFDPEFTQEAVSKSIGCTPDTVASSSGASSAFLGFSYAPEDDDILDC

Study 1 — observed: enzyme activity; mode: inhibitor; concentration: 77 µM; relative to: untreated
Target: DNA polymerase theta, ATPase domain (POLQ, Homo sapiens, UniProt O75417)
Chain of UniProt O75417 (whole entry, unmodified, looked up): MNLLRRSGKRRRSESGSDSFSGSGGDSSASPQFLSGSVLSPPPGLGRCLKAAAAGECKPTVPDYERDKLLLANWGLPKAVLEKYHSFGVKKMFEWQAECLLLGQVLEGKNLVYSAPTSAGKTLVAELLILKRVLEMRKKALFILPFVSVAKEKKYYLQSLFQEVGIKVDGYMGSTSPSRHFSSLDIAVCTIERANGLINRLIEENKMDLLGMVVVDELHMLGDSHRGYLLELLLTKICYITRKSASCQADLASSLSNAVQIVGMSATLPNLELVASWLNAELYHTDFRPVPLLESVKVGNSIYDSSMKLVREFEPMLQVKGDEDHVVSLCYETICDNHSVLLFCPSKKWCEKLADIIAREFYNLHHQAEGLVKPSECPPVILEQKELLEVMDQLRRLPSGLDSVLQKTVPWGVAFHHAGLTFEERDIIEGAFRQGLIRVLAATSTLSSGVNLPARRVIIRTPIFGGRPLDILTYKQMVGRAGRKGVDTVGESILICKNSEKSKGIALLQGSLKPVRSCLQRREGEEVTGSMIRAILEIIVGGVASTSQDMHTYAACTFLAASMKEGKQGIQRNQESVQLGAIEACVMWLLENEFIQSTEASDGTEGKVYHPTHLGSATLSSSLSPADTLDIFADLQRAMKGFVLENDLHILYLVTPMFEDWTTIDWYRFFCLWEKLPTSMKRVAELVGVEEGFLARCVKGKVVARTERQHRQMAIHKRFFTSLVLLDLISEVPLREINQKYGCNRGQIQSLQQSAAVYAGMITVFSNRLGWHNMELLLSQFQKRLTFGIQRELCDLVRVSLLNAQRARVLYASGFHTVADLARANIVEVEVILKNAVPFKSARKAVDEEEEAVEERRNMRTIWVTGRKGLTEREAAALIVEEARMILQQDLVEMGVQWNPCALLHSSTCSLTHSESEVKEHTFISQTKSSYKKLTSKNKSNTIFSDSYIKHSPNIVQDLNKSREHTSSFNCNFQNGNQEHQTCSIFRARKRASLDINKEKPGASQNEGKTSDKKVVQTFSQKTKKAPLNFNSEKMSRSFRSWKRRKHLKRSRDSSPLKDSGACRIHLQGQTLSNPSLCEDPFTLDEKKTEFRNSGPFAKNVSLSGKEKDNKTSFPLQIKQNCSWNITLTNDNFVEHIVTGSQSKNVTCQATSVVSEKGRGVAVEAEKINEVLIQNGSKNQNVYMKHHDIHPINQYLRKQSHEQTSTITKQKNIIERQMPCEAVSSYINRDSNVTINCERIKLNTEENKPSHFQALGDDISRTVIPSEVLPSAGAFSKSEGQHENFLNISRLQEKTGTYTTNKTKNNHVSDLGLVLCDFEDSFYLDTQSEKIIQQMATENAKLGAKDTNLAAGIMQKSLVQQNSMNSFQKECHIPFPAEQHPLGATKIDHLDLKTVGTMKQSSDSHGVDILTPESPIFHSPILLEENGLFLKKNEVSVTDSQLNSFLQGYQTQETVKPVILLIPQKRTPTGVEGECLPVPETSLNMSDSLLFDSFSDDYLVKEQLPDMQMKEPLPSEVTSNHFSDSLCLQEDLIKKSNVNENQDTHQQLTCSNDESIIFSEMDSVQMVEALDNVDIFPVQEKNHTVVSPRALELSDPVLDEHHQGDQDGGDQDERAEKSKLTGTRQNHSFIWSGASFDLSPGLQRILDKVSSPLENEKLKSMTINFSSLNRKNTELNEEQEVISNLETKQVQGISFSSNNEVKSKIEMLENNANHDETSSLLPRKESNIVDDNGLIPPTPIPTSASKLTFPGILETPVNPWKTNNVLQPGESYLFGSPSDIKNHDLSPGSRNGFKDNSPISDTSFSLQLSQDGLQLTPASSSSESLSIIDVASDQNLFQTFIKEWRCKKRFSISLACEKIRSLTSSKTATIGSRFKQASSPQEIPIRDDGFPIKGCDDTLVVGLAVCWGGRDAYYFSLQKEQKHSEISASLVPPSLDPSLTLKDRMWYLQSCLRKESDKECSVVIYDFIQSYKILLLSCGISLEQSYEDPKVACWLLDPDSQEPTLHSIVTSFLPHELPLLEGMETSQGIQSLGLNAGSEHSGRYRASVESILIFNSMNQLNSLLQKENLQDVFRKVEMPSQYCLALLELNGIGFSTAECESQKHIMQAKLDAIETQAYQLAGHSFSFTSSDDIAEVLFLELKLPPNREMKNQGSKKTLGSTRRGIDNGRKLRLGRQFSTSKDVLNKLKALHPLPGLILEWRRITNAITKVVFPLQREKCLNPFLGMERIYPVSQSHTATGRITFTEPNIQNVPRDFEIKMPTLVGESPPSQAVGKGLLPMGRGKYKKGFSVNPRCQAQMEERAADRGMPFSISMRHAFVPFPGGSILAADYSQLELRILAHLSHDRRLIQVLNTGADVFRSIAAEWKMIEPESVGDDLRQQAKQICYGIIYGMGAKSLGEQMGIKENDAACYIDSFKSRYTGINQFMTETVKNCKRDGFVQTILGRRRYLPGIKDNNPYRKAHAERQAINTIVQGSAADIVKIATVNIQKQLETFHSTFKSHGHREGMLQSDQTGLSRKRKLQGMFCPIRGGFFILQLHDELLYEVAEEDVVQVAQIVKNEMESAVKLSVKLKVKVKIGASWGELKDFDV
The remaining activity of `O=c1c(O)c(-c2cc(O)c(O)c(O)c2)oc2cc(O)cc(O)c12` is reported as 97.5% and 106%.
The remaining activity of `NC(=O)CCCSc1nc(N)nc(-c2c(Cl)cc3c4c(cccc24)COC3)n1` is reported as 82.1%.
`Nc1nc(F)nc2c1ncn2[C@@H]1O[C@H](COP(=O)(O)O)[C@@H](O)[C@@H]1O` gave a remaining activity of 97.5%.
`COc1cc(N)c(Cl)cc1C(=O)NC1CCN(Cc2ccccc2)CC1` gave a remaining activity of 102%.
With `O=C1NCCN1c1ncc([N+](=O)[O-])s1` the remaining activity was 100%.
`CC(C)C[C@H](NC(=O)[C@H](O)[C@H](N)Cc1ccccc1)C(=O)O` has a remaining activity of 102%.
With `COC1=C(OC)C(=O)C(CCCCCCCCCCO)=C(C)C1=O` the remaining activity was 98.8%.
For `CN(C)CCCO[C@@H]1[C@H]2OC(C)(C)O[C@H]2O[C@@H]1[C@H](O)CO`, the remaining activity was 103%.
The remaining activity of `CCCCc1ccc2[nH]c(NC(=O)OC)nc2c1` is reported as 96.2%.
The remaining activity of `O=C(O)C(O)Cc1ccc(O)c(O)c1` (centres unmarked) is reported as 73.8%.
`O=C(O)CSCC(=O)NC1CCSC1=O` (centres unmarked) has a remaining activity of 99.4%.

Study 2 — mode: inhibitor
SMILES: Cc1nc(Nc2ncc(C(=O)Nc3c(C)cccc3Cl)s2)cc(N2CCN(CCO)CC2)n1
Serine/threonine-protein kinase NLK (NLK, Homo sapiens, UniProt Q9UBE8); 10 µM — inhibition: 96%.
For Misshapen-like kinase 1 (MINK1, Homo sapiens, UniProt Q8N4C8); 10 µM: inhibition read less than 50%.
The inhibition was less than 50% (Cyclin-dependent kinase 9 (CDK9, Homo sapiens, UniProt P50750); 1 µM).
For Death-associated protein kinase 1 (DAPK1, Homo sapiens, UniProt P53355); 10 µM: inhibition read less than 50%.
For Mitogen-activated protein kinase kinase kinase 9 (MAP3K9, Homo sapiens, UniProt P80192); 10 µM: inhibition read less than 50%.
It gave less than 50% for inhibition (Casein kinase I isoform gamma-2 (CSNK1G2, Homo sapiens, UniProt P78368); 1 µM).
The inhibition was less than 50% (Fibroblast growth factor receptor 3 (FGFR3, Homo sapiens, UniProt P22607, G697C); 10 µM).
It gave 100% for inhibition (Epithelial discoidin domain-containing receptor 1 (DDR1, Homo sapiens, UniProt Q08345); 10 µM).
The inhibition was less than 50% (Dual specificity mitogen-activated protein kinase kinase 4 (MAP2K4, Homo sapiens, UniProt P45985); 10 µM).

Study 3 — Structure (SMILES): Cc1cc(Nc2nc(-c3ccccc3)nc3ccccc23)n[nH]1; observed: enzyme activity; mode: inhibitor; concentration: 0.5 µM; relative to: control
It gave 78.9% for remaining activity (Serine/threonine-protein kinase PAK 6 (PAK6, Homo sapiens, UniProt Q9NQU5)).
For Mitogen-activated protein kinase kinase kinase 20 (MAP3K20, Homo sapiens, UniProt Q9NYL2): remaining activity read 87.1%.
It gave 82.3% for remaining activity (Protein kinase C theta type (PRKCQ, Homo sapiens, UniProt Q04759)).
The remaining activity was 99.7% (Serine/threonine-protein kinase Sgk2 (SGK2, Homo sapiens, UniProt Q9HBY8)).
It gave 79.5% for remaining activity (Serine/threonine-protein kinase PAK 1 (PAK1, Homo sapiens, UniProt Q13153)).
Ribosomal protein S6 kinase alpha-3 (RPS6KA3, Homo sapiens, UniProt P51812) — remaining activity: 66.1%.
Tyrosine-protein kinase JAK1 (JAK1, Homo sapiens, UniProt P23458) — remaining activity: 83.7%.
For Cyclin-dependent kinase 2, with cyclin E (CDK2, Homo sapiens, UniProt P24941): remaining activity read 75.4%.
It gave 99.6% for remaining activity (Serine/threonine-protein kinase SIK2 (SIK2, Homo sapiens, UniProt Q9H0K1)).
For Ephrin type-A receptor 2 (EPHA2, Homo sapiens, UniProt P29317): remaining activity read 94.8%.
For Calcium/calmodulin-dependent protein kinase type 1 (CAMK1, Homo sapiens, UniProt Q14012): remaining activity read 93.1%.
It gave 70.8% for remaining activity (Insulin-like growth factor 1 receptor (IGF1R, Homo sapiens, UniProt P08069)).
It gave 91.7% for remaining activity (Dual specificity protein kinase CLK2 (CLK2, Homo sapiens, UniProt P49760)).
The remaining activity was 97.1% (Protein kinase C zeta type (PRKCZ, Homo sapiens, UniProt Q05513)).
Calcium/calmodulin-dependent protein kinase kinase 1 (CAMKK1, Homo sapiens, UniProt Q8N5S9) — remaining activity: 90.7%.
It gave 106% for remaining activity (Tyrosine-protein kinase Tec (TEC, Homo sapiens, UniProt P42680)).
Casein kinase I isoform delta (CSNK1D, Homo sapiens, UniProt P48730) — remaining activity: 96.7%.
The remaining activity was 97.4% (Casein kinase I isoform epsilon (CSNK1E, Homo sapiens, UniProt P49674)).
Muscle, skeletal receptor tyrosine-protein kinase (MUSK, Homo sapiens, UniProt O15146) — remaining activity: 51%.
It gave 94.2% for remaining activity (Tyrosine-protein kinase receptor TYRO3 (TYRO3, Homo sapiens, UniProt Q06418)).
The remaining activity was 90.1% (SRSF protein kinase 1 (SRPK1, Homo sapiens, UniProt Q96SB4)).
Vascular endothelial growth factor receptor 1 (FLT1, Homo sapiens, UniProt P17948) — remaining activity: 78.7%.
It gave 74% for remaining activity (Dual specificity protein kinase CLK1 (CLK1, Homo sapiens, UniProt P49759)).

Study 4 — technique: competition with immobilised ligand; concentration: 1 µM
SMILES: CN(c1ccnc(CNc2nc(Nc3ccc4c(c3)CC(=O)N4)ncc2C(F)(F)F)n1)S(C)(=O)=O
The remaining binding was 71% (Tyrosine-protein kinase ABL1, non-phosphorylated (ABL1, Homo sapiens, UniProt P00519, F317L); cell-free assay).
The remaining binding was 73% (Epidermal growth factor receptor (EGFR, Homo sapiens, UniProt P00533, L858R); cell-free assay).
The remaining binding was 82% (RAC-beta serine/threonine-protein kinase (AKT2, Homo sapiens, UniProt P31751); cell-free assay).
For Mitogen-activated protein kinase kinase kinase kinase 2 (MAP4K2, Homo sapiens, UniProt Q12851); cell-free assay: remaining binding read 39%.
The remaining binding was 35% (Myosin light chain kinase family member 4 (MYLK4, Homo sapiens, UniProt Q86YV6); cell-free assay).
For Serine/threonine-protein kinase Nek3 (NEK3, Homo sapiens, UniProt P51956); cell-free assay: remaining binding read 60%.
It gave 0.4% for remaining binding (Mitogen-activated protein kinase kinase kinase 19 (MAP3K19, Homo sapiens, UniProt Q56UN5); cell-free assay).
Cyclin-dependent kinase 13 (CDK13, Homo sapiens, UniProt Q14004); cell-free assay — remaining binding: 82%.
For Serine/threonine-protein kinase 32C (STK32C, Homo sapiens, UniProt Q86UX6); cell-free assay: remaining binding read 76%.
Dual specificity tyrosine-phosphorylation-regulated kinase 1B (DYRK1B, Homo sapiens, UniProt Q9Y463); cell-free assay — remaining binding: 31%.
The remaining binding was 100% (Serine/threonine-protein kinase D3 (PRKD3, Homo sapiens, UniProt O94806); cell-free assay).
For Ribosomal protein S6 kinase alpha-2, N-terminal kinase domain (RPS6KA2, Homo sapiens, UniProt Q15349); cell-free assay: remaining binding read 57%.
It gave 0% for remaining binding (Mitogen-activated protein kinase kinase kinase 13 (MAP3K13, Homo sapiens, UniProt O43283); binding).
BMP-2-inducible protein kinase (BMP2K, Homo sapiens, UniProt Q9NSY1); cell-free assay — remaining binding: 2.3%.
For Ephrin type-A receptor 8 (EPHA8, Homo sapiens, UniProt P29322); cell-free assay: remaining binding read 100%.
It gave 26% for remaining binding (Activin receptor type-1B (ACVR1B, Homo sapiens, UniProt P36896); cell-free assay).
For Hepatocyte growth factor receptor (MET, Homo sapiens, UniProt P08581, Y1235D); cell-free assay: remaining binding read 10%.
For Ephrin type-A receptor 7 (EPHA7, Homo sapiens, UniProt Q15375); cell-free assay: remaining binding read 87%.
It gave 100% for remaining binding (Epidermal growth factor receptor (EGFR, Homo sapiens, UniProt P00533, T790M); cell-free assay).
It gave 0.5% for remaining binding (Serine/threonine-protein kinase PLK2 (PLK2, Homo sapiens, UniProt Q9NYY3); binding).
Hepatocyte growth factor receptor (MET, Homo sapiens, UniProt P08581, M1250T); cell-free assay — remaining binding: 6.8%.
For Cyclin-dependent kinase 17 (CDK17, Homo sapiens, UniProt Q00537); cell-free assay: remaining binding read 85%.
For Tyrosine-protein kinase HCK (HCK, Homo sapiens, UniProt P08631); cell-free assay: remaining binding read 100%.
Receptor-type tyrosine-protein kinase FLT3, autoinhibited (FLT3, Homo sapiens, UniProt P36888); cell-free assay — remaining binding: 64%.
Mitogen-activated protein kinase kinase kinase 6 (MAP3K6, Homo sapiens, UniProt O95382); cell-free assay — remaining binding: 73%.

Some of these lines once more (study 1):
`O=C(O)CSCC(=O)NC1CCSC1=O` (centres unmarked) has a remaining activity of 99.4%.
With `COC1=C(OC)C(=O)C(CCCCCCCCCCO)=C(C)C1=O` the remaining activity was 98.8%.
The remaining activity of `O=c1c(O)c(-c2cc(O)c(O)c(O)c2)oc2cc(O)cc(O)c12` is reported as 97.5% and 106%.
For `CN(C)CCCO[C@@H]1[C@H]2OC(C)(C)O[C@H]2O[C@@H]1[C@H](O)CO`, the remaining activity was 103%.
`Nc1nc(F)nc2c1ncn2[C@@H]1O[C@H](COP(=O)(O)O)[C@@H](O)[C@@H]1O` gave a remaining activity of 97.5%.
The remaining activity of `NC(=O)CCCSc1nc(N)nc(-c2c(Cl)cc3c4c(cccc24)COC3)n1` is reported as 82.1%.
The remaining activity of `CCCCc1ccc2[nH]c(NC(=O)OC)nc2c1` is reported as 96.2%.
`COc1cc(N)c(Cl)cc1C(=O)NC1CCN(Cc2ccccc2)CC1` gave a remaining activity of 102%.
